Assay results from different studies.
Compare with care: the assays were run in different laboratories. ± gives the spread as reported.
Chymotrypsin-C: Chymotrypsin-C (Homo sapiens, UniProt Q99895)
Chain of UniProt Q99895 (whole entry, looked up): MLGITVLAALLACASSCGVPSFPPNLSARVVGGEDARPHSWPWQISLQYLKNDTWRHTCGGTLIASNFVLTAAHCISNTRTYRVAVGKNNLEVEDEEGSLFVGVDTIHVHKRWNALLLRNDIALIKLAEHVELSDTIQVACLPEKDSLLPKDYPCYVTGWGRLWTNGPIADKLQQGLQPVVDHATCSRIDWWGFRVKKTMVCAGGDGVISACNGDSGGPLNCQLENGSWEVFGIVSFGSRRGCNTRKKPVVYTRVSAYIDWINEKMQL
HTR2C: 5-hydroxytryptamine receptor 2C (HTR2C, Homo sapiens, UniProt P28335)
Chain of UniProt P28335 (whole entry, looked up): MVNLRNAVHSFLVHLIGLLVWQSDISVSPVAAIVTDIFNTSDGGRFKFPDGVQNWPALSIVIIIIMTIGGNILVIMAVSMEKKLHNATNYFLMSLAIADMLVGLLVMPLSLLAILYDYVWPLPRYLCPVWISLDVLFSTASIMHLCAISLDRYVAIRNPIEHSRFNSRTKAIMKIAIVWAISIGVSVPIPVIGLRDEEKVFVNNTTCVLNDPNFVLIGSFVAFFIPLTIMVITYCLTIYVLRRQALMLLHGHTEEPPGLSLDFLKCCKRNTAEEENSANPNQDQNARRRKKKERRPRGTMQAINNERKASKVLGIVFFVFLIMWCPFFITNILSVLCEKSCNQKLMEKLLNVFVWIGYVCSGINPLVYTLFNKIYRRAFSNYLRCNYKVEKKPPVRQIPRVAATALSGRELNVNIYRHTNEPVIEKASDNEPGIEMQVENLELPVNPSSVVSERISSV
CA2: Carbonic anhydrase 2 (CA2, Homo sapiens, UniProt P00918)
Chain of UniProt P47901 (whole entry, looked up): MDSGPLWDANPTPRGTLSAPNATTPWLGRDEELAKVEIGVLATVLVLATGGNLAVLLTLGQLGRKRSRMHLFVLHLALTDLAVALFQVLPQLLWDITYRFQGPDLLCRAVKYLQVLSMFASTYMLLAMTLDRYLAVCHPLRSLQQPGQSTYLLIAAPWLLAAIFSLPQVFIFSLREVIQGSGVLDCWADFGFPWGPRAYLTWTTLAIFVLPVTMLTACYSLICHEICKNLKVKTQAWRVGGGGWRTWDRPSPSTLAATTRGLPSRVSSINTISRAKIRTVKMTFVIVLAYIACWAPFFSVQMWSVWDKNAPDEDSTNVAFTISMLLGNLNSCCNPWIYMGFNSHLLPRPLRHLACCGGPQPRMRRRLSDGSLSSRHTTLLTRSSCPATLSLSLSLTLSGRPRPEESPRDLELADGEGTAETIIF
Chain of UniProt P12821 (whole entry, looked up): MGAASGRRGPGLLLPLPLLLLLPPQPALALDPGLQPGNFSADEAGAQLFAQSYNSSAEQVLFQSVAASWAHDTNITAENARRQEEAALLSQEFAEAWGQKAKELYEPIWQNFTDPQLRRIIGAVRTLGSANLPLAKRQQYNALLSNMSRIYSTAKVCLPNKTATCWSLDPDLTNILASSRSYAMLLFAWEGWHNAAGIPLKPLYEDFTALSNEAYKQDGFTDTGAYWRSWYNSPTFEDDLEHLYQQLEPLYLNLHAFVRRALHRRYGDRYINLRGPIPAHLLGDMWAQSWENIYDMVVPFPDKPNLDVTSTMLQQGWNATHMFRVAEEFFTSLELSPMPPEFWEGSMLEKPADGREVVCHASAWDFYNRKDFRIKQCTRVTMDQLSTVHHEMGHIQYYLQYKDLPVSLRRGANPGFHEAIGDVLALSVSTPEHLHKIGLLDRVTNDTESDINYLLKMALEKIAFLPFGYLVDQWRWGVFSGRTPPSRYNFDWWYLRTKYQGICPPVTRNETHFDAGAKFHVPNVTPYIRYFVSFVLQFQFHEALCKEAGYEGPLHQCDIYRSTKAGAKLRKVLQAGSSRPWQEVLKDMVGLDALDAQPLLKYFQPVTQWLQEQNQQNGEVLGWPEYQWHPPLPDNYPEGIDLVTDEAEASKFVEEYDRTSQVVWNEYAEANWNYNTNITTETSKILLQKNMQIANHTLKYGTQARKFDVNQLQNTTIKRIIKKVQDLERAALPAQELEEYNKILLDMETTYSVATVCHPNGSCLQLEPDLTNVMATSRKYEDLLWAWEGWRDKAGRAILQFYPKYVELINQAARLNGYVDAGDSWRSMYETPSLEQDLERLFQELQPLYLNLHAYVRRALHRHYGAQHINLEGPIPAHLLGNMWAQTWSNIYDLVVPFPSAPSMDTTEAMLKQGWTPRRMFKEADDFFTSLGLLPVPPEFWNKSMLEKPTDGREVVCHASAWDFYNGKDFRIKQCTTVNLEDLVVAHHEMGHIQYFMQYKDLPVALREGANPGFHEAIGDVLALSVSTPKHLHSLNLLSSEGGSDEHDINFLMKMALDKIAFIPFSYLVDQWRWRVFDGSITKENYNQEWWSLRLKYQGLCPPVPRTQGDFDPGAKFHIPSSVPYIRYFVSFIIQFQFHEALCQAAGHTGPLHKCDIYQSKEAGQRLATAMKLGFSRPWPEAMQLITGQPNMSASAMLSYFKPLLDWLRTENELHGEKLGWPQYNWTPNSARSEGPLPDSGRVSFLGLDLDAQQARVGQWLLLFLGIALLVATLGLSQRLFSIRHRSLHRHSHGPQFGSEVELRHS
Chain of UniProt Q62666 (whole entry, looked up): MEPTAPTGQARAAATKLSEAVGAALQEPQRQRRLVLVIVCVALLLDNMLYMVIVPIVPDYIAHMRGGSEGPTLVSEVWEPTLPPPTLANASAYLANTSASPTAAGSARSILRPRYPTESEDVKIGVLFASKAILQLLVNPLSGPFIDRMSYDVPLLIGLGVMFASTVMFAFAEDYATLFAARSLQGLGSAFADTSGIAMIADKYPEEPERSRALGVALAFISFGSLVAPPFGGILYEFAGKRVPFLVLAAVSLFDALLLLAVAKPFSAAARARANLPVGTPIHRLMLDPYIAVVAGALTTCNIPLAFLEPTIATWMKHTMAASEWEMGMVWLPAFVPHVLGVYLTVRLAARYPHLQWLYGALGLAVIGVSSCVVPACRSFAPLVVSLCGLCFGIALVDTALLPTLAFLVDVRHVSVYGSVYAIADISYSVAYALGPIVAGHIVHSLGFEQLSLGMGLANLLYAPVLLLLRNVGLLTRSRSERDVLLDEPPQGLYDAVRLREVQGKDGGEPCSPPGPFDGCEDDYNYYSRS
Chain of UniProt Q9P2K8 (whole entry, looked up): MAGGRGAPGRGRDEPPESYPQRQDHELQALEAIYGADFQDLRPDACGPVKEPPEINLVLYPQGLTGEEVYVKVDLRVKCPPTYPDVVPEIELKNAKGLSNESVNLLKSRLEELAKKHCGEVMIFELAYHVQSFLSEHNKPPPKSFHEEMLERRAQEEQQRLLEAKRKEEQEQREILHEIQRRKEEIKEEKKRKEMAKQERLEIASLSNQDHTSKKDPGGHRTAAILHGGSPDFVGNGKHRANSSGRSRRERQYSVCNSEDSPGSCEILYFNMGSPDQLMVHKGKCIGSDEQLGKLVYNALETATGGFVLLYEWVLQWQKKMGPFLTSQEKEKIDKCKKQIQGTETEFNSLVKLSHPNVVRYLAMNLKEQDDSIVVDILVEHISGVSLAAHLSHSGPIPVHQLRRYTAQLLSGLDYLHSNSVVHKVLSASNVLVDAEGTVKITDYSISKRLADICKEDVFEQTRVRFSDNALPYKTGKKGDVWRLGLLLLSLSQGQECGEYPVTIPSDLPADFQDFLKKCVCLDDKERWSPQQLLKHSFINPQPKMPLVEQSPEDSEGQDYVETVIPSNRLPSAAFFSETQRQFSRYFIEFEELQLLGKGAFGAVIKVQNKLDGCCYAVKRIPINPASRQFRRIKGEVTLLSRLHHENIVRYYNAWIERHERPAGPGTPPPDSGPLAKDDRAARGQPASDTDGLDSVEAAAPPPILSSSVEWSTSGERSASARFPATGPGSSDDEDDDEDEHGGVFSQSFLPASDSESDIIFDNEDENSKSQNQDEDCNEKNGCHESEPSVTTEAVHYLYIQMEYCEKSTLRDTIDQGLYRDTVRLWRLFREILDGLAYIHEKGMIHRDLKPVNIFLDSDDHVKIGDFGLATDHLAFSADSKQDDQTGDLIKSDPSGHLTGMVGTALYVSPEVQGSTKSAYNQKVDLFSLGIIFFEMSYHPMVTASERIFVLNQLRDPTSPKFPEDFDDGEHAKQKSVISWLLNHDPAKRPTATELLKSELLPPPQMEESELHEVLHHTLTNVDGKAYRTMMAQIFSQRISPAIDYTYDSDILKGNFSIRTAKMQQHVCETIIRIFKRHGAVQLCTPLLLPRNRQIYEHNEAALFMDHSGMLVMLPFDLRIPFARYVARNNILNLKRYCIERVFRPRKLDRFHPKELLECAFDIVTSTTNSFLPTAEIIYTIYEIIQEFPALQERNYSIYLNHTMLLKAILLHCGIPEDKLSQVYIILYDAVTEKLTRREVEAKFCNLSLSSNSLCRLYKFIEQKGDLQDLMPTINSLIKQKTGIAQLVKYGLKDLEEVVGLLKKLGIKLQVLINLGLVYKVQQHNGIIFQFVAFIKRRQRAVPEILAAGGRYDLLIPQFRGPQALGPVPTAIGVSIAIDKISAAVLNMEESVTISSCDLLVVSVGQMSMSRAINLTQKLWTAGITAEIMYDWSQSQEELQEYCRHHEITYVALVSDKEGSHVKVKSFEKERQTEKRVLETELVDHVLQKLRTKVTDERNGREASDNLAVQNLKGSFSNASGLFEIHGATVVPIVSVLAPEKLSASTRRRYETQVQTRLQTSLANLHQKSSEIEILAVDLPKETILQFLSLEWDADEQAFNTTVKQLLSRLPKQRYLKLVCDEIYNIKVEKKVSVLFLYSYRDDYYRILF
Chain of UniProt P41143 (whole entry, unmodified, looked up): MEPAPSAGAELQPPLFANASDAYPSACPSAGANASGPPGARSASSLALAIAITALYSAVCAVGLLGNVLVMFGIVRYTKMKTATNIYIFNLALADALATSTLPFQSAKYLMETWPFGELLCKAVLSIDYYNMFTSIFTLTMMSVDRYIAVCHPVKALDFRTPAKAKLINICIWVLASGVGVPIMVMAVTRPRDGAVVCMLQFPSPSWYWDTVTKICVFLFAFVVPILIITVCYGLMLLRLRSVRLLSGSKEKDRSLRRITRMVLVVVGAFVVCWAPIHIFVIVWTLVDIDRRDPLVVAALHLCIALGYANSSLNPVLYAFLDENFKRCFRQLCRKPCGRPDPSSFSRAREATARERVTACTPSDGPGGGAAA

CC(C)[C@H]1NC(=O)C[C@H]2/C=C/CCSSC[C@@H](NC1=O)C(=O)N[C@H](Cc1cccc3ccccc13)C(=O)NCC(=O)O2 — inhibition (Serine/threonine-protein kinase PLK2 (PLK2, Homo sapiens, UniProt Q9NYY3); enzyme activity, inhibitor; 10 µM): 0.6%
CC(C)C[C@@H]1NC(=O)[C@H](CC(C)C)NC(=O)[C@H](CC(C)C)NC(=O)[C@H]([C@@H](C)O)NC(=O)[C@@H]2CSSC[C@@H]3NC(=O)[C@H]([C@@H](C)O)NC(=O)[C@H](CC(N)=O)NC(=O)[C@H](CSSC[C@@H](C(=O)N[C@H](C(=O)N[C@@H](CCC(N)=O)C(=O)O)C(C)C)NC1=O)NC(=O)[C@H](CCCCN)NC(=O)[C@H](CC(=O)O)NC(=O)[C@H](CCCCN)NC(=O)[C@H](Cc1ccccc1)NC(=O)[C@H]([C@@H](C)O)NC(=O)[C@H]([C@@H](C)O)NC(=O)CNC(=O)[C@@H]1CCCN1C(=O)[C@H](CCC(=O)O)NC(=O)[C@@H](NC(=O)[C@@H](NC(=O)[C@@H](NC(=O)[C@H](CCC(=O)O)NC(=O)[C@H](CO)NC(=O)CN)C(C)C)[C@@H](C)O)CSSC[C@H](NC(=O)[C@H](CCCNC(=N)N)NC3=O)C(=O)NCC(=O)N[C@@H](CO)C(=O)N[C@@H](CC(=O)O)C(=O)NCC(=O)N[C@@H](CCCCN)C(=O)N[C@@H](CO)C(=O)N[C@@H](C)C(=O)N[C@@H](Cc1c[nH]c3ccccc13)C(=O)N2 — Ki (Chymotrypsin-C; enzyme activity, inhibitor): 11.1 ± 3.49 nM
O[C@H]1[C@H](n2cnc3c(N[C@@H](C4CCC4)C4CC4)nc(I)nc32)[C@H]2C[C@@]2(C(F)F)[C@H]1O — Ki (HTR2C; ligand displacement, radioligand): 2750 nM
O=[N+]([O-])c1ccc(S(=O)(=O)Oc2ccc(/C=N/NS(=O)(=O)c3cc(Cl)ccc3Cl)cc2)cc1 — Ki (CA2; enzyme activity, inhibitor, absorbance): 17.5 nM
CSCC[C@@H]1NC(=O)[C@H](CC(C)C)NC(=O)[C@H]([C@@H](C)O)NC(=O)[C@@H]2CSSC[C@@H]3NC(=O)[C@H]([C@@H](C)O)NC(=O)[C@H](CC(N)=O)NC(=O)[C@H](CSSC[C@@H](C(=O)N[C@@H](CC(=O)O)C(=O)N[C@@H](CCC(N)=O)C(=O)O)NC(=O)[C@H](CC(C)C)NC1=O)NC(=O)[C@H](CCCCN)NC(=O)[C@H](CC(=O)O)NC(=O)[C@H](CCCCN)NC(=O)[C@H](Cc1ccccc1)NC(=O)[C@H]([C@@H](C)O)NC(=O)[C@H]([C@@H](C)O)NC(=O)CNC(=O)[C@@H]1CCCN1C(=O)[C@H](CCC(=O)O)NC(=O)[C@@H](NC(=O)[C@@H](NC(=O)[C@@H](NC(=O)[C@H](CCC(=O)O)NC(=O)[C@H](CO)NC(=O)CN)C(C)C)[C@@H](C)O)CSSC[C@H](NC(=O)[C@H](CCCNC(=N)N)NC3=O)C(=O)NCC(=O)N[C@@H](CO)C(=O)N[C@@H](CC(=O)O)C(=O)NCC(=O)N[C@@H](CCCCN)C(=O)N[C@@H](CO)C(=O)N[C@@H](C)C(=O)N[C@@H](C)C(=O)N2 — Ki (Chymotrypsin-C; enzyme activity, inhibitor): 0.05 ± 0.02 nM
COc1c(C(C)C)cc2c(c1O)[C@@]1(C(=O)O)CCCC(C)(C)C1CC2 (stereo partly shown) — Ki (CA2; enzyme activity, inhibitor): 4.5 nM
Cc1cc(O)cc(C)c1C[C@H](N)C(=O)N[C@H](CCCNC(=N)N)C(=O)N[C@@H](Cc1ccccc1)C(=O)N(C)CC(=O)N(C)Cc1cc(C(F)(F)F)cc(C(F)(F)F)c1 — Ki (Delta-type opioid receptor (OPRD1, Homo sapiens, UniProt P41143, W274A)): 9.12 ± 3.21 nM
CC[C@H](C)[C@H](NC(=O)[C@H](CO)NC(=O)[C@H](Cc1ccc(O)cc1)NC(=O)[C@H](Cc1ccc(O)cc1)NC(=O)[C@H](CC(N)=O)NC(=O)CNC(=O)[C@H](CO)NC(=O)[C@H](Cc1ccc(O)cc1)NC(=O)[C@H](CO)NC(=O)[C@H](CO)NC(=O)[C@H](CC(N)=O)NC(=O)COCCOCCNC(=O)CN1CCN(CC(=O)O)CCN(CC(=O)O)CCN(CC(=O)O)CC1)C(=O)N[C@@H](CC(C)C)C(N)=O [copper-64 labelled] — tissue uptake (dynamic PET; KPC mouse Ptf1a-CreER tdTomato, metastases; intravenous, 4.6 MBq/mouse, 1.1 min, 84 d after tamoxifen): 12.8 %ID/mL
CN(C)[C@H]1C[C@@]23CC[C@@]4(O2)C(=CC[C@]2(C)[C@@H](c5ccc6ccncc6c5)CC[C@H]24)C=C3[C@@H](O)[C@@H]1O — inhibition (eIF-2-alpha kinase GCN2 (EIF2AK4, Homo sapiens, UniProt Q9P2K8); ATP probe labelling, inhibitor, KiNativ profiling; 1 µM): 7.1%
CS(C)(=O)=Nc1ccc(-c2ccc(-c3nc4cc(O[C@@H]5CO[C@H]6[C@@H]5OC[C@H]6O)[nH]c4cc3F)cc2)cc1 — inhibition (Homeodomain-interacting protein kinase 3 (HIPK3, Homo sapiens, UniProt Q9H422); enzyme activity, inhibitor; 10 µM): 5%
COc1cc2c(cc1O)C(CCc1ccc(Cl)cc1)N(C)CC2 (stereo not shown) — Ki (HTR2C; cell-free assay, radioligand): 1400 nM
CSCC[C@@H]1NC(=O)[C@H](CCSC)NC(=O)[C@H]([C@@H](C)O)NC(=O)[C@@H]2CSSC[C@@H]3NC(=O)[C@H]([C@@H](C)O)NC(=O)[C@H](CC(N)=O)NC(=O)[C@H](CSSC[C@@H](C(=O)N[C@@H](CC(=O)O)C(=O)N[C@@H](CCC(N)=O)C(=O)O)NC(=O)[C@H](CC(C)C)NC1=O)NC(=O)[C@H](CCCCN)NC(=O)[C@H](CC(=O)O)NC(=O)[C@H](CCCCN)NC(=O)[C@H](Cc1ccccc1)NC(=O)[C@H]([C@@H](C)O)NC(=O)[C@H]([C@@H](C)O)NC(=O)CNC(=O)[C@@H]1CCCN1C(=O)[C@H](CCC(=O)O)NC(=O)[C@@H](NC(=O)[C@@H](NC(=O)[C@@H](NC(=O)[C@H](CCC(=O)O)NC(=O)[C@H](CO)NC(=O)CN)C(C)C)[C@@H](C)O)CSSC[C@H](NC(=O)[C@H](CCCNC(=N)N)NC3=O)C(=O)NCC(=O)N[C@@H](CO)C(=O)N[C@@H](CC(=O)O)C(=O)NCC(=O)N[C@@H](CCCCN)C(=O)N[C@@H](CO)C(=O)N[C@@H](C)C(=O)N[C@@H](C)C(=O)N2 — Ki (Chymotrypsin-C; enzyme activity, inhibitor): 0.45 ± 0.08 nM
O=C1c2ccccc2CCCN1CCCCN1CCN(c2cccc(Cl)c2Cl)CC1 — Ki (5-hydroxytryptamine receptor 5A (HTR5A, Homo sapiens, UniProt P47898); ligand displacement, radioligand): 809 nM
NC1CCSC1=O (stereo not shown) — Ki (Carbonic anhydrase 12 (CA12, Homo sapiens, UniProt O43570); CO2 hydration activity, inhibitor, stopped-flow CO2 hydration; room temperature preincubation): > 100000 nM
O=C1NC2(CC2)COc2ncc(F)cc2[C@H]2COCCN2c2ccn3ncc1c3n2 — serum sodium (Sprague-Dawley rat, female, serum; oral, 10 mg/kg/day, end of treatment, 4-week subacute toxicity): 146 ± 1 mmol/L
CC(C)(C)C(=O)OCOP(=O)(OCOC(=O)C(C)(C)C)C1CCCN(O)C1=O (stereo not shown) — log LC50 (SF-268): > -4 log M
OC1Cc2ccccc2CC1N1CCC2(C=Cc3ccc(Br)cc32)CC1 (racemic) — Ki (Vesicular acetylcholine transporter (Rattus norvegicus, UniProt Q62666); radioligand binding; PC12 expressing VAChT; together with: [3H]vesamicol): 11 ± 1 nM
COc1ccccc1-c1n[nH]c2nc(NC3CCN(C(=O)Cc4ccc(F)cc4F)CC3)ncc12 — relative abundance (bead binding, competition bead pull-down, measured: LINJ.36.1320; Leishmania donovani extract; 10 µM; relative to: vehicle): 1.11
Cc1cc(=O)oc2cc(OCCCCCC[Se]C#N)ccc12 — Ki (CA2; enzyme activity, inhibitor, stopped-flow): > 100000 nM
C[C@@H](Cc1ccsc1)NC(=O)NC[C@H](Cc1ccc(O)cc1)N(C)C — Ki (D(4) dopamine receptor (DRD4, Homo sapiens, UniProt P21917)): 20000 ± 4100 nM
O=S(=O)(N/N=C/c1ccc(OS(=O)(=O)c2ccc(Br)cc2)cc1)c1cc(Cl)ccc1Cl — Ki (CA2; enzyme activity, inhibitor, absorbance): 107 nM
O=C1NC(=O)c2c1c1cc(F)c[n+]3c1c1c2c2cc(O)ccc2[n]1[Ru-4]312([N]=C=S)[S+]3CC[S+]1CC[S+]2CC3 (stereo not shown) — remaining activity (Misshapen-like kinase 1 (MINK1, Homo sapiens, UniProt Q8N4C8); enzyme activity; 100 nM, human enzyme, together with: 10 µM ATP; relative to: untreated): 51%
O=S(=O)(N/N=C/c1ccc(OS(=O)(=O)c2ccccc2)cc1)c1ccc(Cl)cc1 — Ki (CA2; enzyme activity, inhibitor, absorbance): 565 nM
CC(C)[C@@H]1NC(=O)[C@H](Cc2ccccc2)NC(=O)[C@H](Cc2ccc(O)cc2)NC(=O)CCSSCCC(=O)N[C@@H](Cc2ccc(O)cc2)C(=O)N[C@@H](Cc2ccccc2)C(=O)N[C@@H](C(C)C)C(=O)N[C@@H](CC(N)=O)C(=O)N[C@H](C(=O)N2CCC[C@H]2C(=O)N[C@H](CCCNC(=N)N)C(=O)NCC(N)=O)CSSC[C@@H](C(=O)N2CCC[C@H]2C(=O)N[C@H](CCCNC(=N)N)C(=O)NCC(N)=O)NC(=O)[C@H](CC(N)=O)NC1=O — Ki (Vasopressin V1b receptor (AVPR1B, Homo sapiens, UniProt P47901); ligand displacement, radioligand): 3.3 nM
NC(=O)CC[C@H](N)C(=O)N[C@@H](CC(N)=O)C(=O)N[C@@H](CC(=O)O)C(=O)N[C@@H](Cc1ccccc1)C(=O)O — Ki (Angiotensin-converting enzyme (ACE, Homo sapiens, UniProt P12821); enzyme activity, inhibitor, absorbance): 469000 nM
